Assay results of several laboratories.
“And” joins repeats or separate records; there may be more than shown.
Target: Protein kinase C delta type (PRKCD, Homo sapiens, UniProt Q05655)

| SMILES | test | conditions | how to read | endpoint | result |
| --- | --- | --- | --- | --- | --- |
| NC(=O)[C@@H](O)C[C@H]1CCc2sc3ncnc(O[C@H]4CC[C@H](N5CCOCC5)CC4)c3c21 | enzyme activity, inhibitor | 10 µM | – | inhibition | 3% |
| COCC12C(=O)NC3C4(C(OC)CC1O)C1CC5(O)C(OC)C(O)C(OC(C)=O)(C1C5OC(=O)c1ccccc1)C3(O)C(OC)C24 (centres unmarked) | kinase activity, inhibitor, ProQinase kinase profiling | 25 µM | reference: control | remaining activity | 107% and 105% |
| CNC(=O)C1CCN(c2cc(C)c(F)cc2NC(=O)c2ccc(-c3cc(O)ccc3C)c(C)c2)CC1 | binding, competition with immobilised ligand | 1 µM | – | remaining binding | 100% |
| CCn1cc(C(=O)O)c(=O)c2c(N)c(F)c(NC3CCCCC3)cc21 | kinase activity | 0.1 µM, with: ATP at Km | – | inhibition | -2.2% |
| C=CC(=O)N1CCc2ccc(-n3c(=O)ccc4cnc5ccc(-c6cnn(C)c6)cc5c43)cc21 | KINOMEscan | 1 µM | reference: DMSO control | remaining binding | 100% |
| Cc1ccc(-c2c(/C=C(\C#N)C(=O)NC(C)C)n(CCCO)c3ncnc(N)c23)cc1 | cell-free assay, competition with immobilised ligand | 1 µM | – | remaining binding | 100% |
| CNC1C[S+]2CC[S+]3CC[S+](C1)[Ru-4]321([N]=C=S)[n]2c3ccc(OC)cc3c3c4c(c5cc(F)c[n+]1c5c32)C(=O)NC4=O (centres unmarked) | KinomeScan | 0.1 µM | reference: untreated | remaining binding | 53% |
| O=C(Cc1ccc(OCc2ccccc2)cc1)NC1(C(=O)O)CCN(C(=O)c2ccc(-c3cccc(Cl)c3)cc2)CC1 | enzyme activity, inhibitor | 10 µM | – | activity vs control | 102% |
| Cc1c[nH]c2nccc(-c3ccc(C(=O)N[C@@H]4c5c(F)cc(C(F)F)cc5C[C@@H]4O)cn3)c12 | binding, competition with immobilised ligand | 3 µM | – | remaining binding | 14% |
| CCN1CCN(Cc2ccc(C(=O)Nc3ccc(C)c(NCc4cnc5[nH]ccc5c4OC)c3)cc2C(F)(F)F)CC1 | binding, competition with immobilised ligand | 1 µM | – | remaining binding | 51% |
| CC(C)=CC1OC(C)(C)C2C=C3C(=O)C(Cl)=CC(O)C3C3C(O)C4OC4C(=O)C132 (centres unmarked) | cell-free assay, competition with immobilised ligand | 10 µM | – | remaining binding | 75% |
| CCN1CCN(Cc2ccc(NC(=O)c3ccc(C)c(NC(=O)c4cncc(-c5cccs5)c4)c3)cc2C(F)(F)F)CC1 | binding, competition with immobilised ligand | 1 µM | – | remaining binding | 14% |
| COc1c(Cl)cccc1Nc1c(-c2ccncc2C#C[C@@]2(C)CCCN2C(=O)/C=C/CN(C)C)[nH]c2c1C(=O)NCC2 | cell-free assay, competition with immobilised ligand | 3 µM | – | remaining binding | 69% |
| Nc1ncc2c(n1)-c1c([nH]c3ccc(C4=CCOCC4)cc13)CCC2 | binding, competition with immobilised ligand | 1 µM | – | remaining binding | 100% |
